Published values gathered from unrelated publications.
Compare with care: the assays were run in different laboratories.
Medium: plasma

Structure (SMILES) | test system | conditions | scale | measurement | result
Cn1cc(C2=C(c3cn(C4CCN(Cc5ccccn5)CC4)c4ccccc34)C(=O)NC2=O)c2ccccc21 | human, cancer patients | oral, 250 mg once daily, cycle 1 day 22, together with: erlotinib 150 mg daily | – | Cmax at steady state | 618 nM
CC(C)c1nc(CN(C)C(=O)N[C@H](C(=O)N[C@@H](Cc2ccccc2)C[C@H](O)[C@H](Cc2ccccc2)NC(=O)OCc2cncs2)C(C)C)cs1 | healthy human volunteers | oral, dose not given, together with: omeprazole plus 2D regimen | – | Cmax | 2260 ng/mL
CC[C@@]1(O)C(=O)OCc2c1cc1n(c2=O)Cc2cc3c(CN(C)C)c(O)ccc3nc2-1 | human patients | oral, 8 mg weekly, geometric mean, alone | – | Cmax | 24.8 ng/mL
CCCCCOc1ccc(-c2ccc(-c3ccc(C(=O)N[C@H]4C[C@@H](O)[C@@H](O)NC(=O)[C@@H]5[C@@H](O)[C@@H](C)CN5C(=O)[C@H]([C@@H](C)O)NC(=O)[C@H]([C@H](O)[C@@H](O)c5ccc(O)cc5)NC(=O)[C@@H]5C[C@@H](O)CN5C(=O)[C@H]([C@@H](C)O)NC4=O)cc3)cc2)cc1 | human | intravenous, 1.5 mg/kg/day maintenance, 18 h post dose | – | Cmax at steady state | 3300 ng/mL
O[C@H]1CCCN[C@@H]1CCCn1cnc2c(Cl)c(Cl)ccc21 | human | oral, 100 mg single dose, solution, geometric mean | – | Cmax | 72.3 ng/mL
Cc1cnc(C(=O)N[C@H]2CCCCC/C=C\[C@@H]3C[C@@]3(C(=O)NS(=O)(=O)C3CC3)NC(=O)[C@@H]3C[C@@H](Oc4nc5ccccc5c5ccccc45)CN3C2=O)cn1 | healthy human volunteers | oral, dose not given, together with: pravastatin plus 2D regimen | – | Cmax | 153 ng/mL
COc1ccc(C[C@@H]2NC(=O)[C@H]([C@@H](C)O)NC(=O)[C@@H]3[C@@H]4CCN3C(=O)[C@@H]3Cc5cn(c6ccc(F)cc56)CCCCCCN(Cc5ccc(cc5)CCNC(=O)[C@]5(C)CCCN5C2=O)C(=O)CCC(=O)N[C@@H](C)C(=O)N[C@H](CNC(=O)CCCCC[N+](C)(C)C)C(=O)N[C@@H](Cc2cccc(c2)CNC(=O)CO4)C(=O)N3)cc1 | healthy humans | oral, 10 mg once daily, day 1, dosed 30 min post-meal, together with: sodium caprate 360 mg | – | Cmax | 3.29 nM
COc1cc2c(c(OC)c1OC)-c1ccc(OC)c(=O)cc1[C@@H](NC(C)=O)CC2 | human, male | oral, 10 mg, together with: allopurinol 300 mg | reference: combination over alone | Cmax ratio | 110%
COC(=O)N[C@H](C(=O)N1CCC[C@H]1C(=O)Nc1ccc([C@@H]2CC[C@@H](c3ccc(NC(=O)[C@@H]4CCCN4C(=O)[C@@H](NC(=O)OC)C(C)C)cc3)N2c2ccc(C(C)(C)C)cc2)cc1)C(C)C | healthy human volunteers | oral, dose not given, alone, digoxin interaction study | – | Cmax | 148 ng/mL
[O-][S+]1CCc2nc(N3CCC(c4ncc(Cl)cn4)CC3)nc(NC3(CO)CCC3)c21 (stereo not shown) | human, idiopathic pulmonary fibrosis | oral, 18 mg twice daily, day 14, geometric mean | – | Cmax at steady state | 460 nM

Excerpt of the above:
Structure (SMILES) | test system | conditions | scale | measurement | result
CC(C)c1nc(CN(C)C(=O)N[C@H](C(=O)N[C@@H](Cc2ccccc2)C[C@H](O)[C@H](Cc2ccccc2)NC(=O)OCc2cncs2)C(C)C)cs1 | healthy human volunteers | oral, dose not given, together with: omeprazole plus 2D regimen | – | Cmax | 2260 ng/mL
